Measured values gathered from unrelated publications.
Compare with care: the assays were run in different laboratories. “And” joins repeats or separate records; there may be more than shown.
CDK2: Cyclin-dependent kinase 2 (CDK2, Homo sapiens, UniProt P24941)
CDK2 with cyclin A: Cyclin-dependent kinase 2, with cyclin A (CDK2, Homo sapiens, UniProt P24941)
CDK2 with cyclin E: Cyclin-dependent kinase 2, with cyclin E (CDK2, Homo sapiens, UniProt P24941)

Compound | target | assay | test system | conditions | scale | quantity | value
CNC(=O)C1CCN(c2cc(C)c(F)cc2NC(=O)c2ccc(-c3cc(O)ccc3C)c(C)c2)CC1 | CDK2 | binding, competition with immobilised ligand |  | 1 µM |  | remaining binding | 99%
CN1CCN(Cc2ccc(-c3ccc(CO[C@H]4CCC[C@@H]4NC(=O)c4cc(-c5cnn(C)c5)cnc4N)cc3)cc2)CC1 | CDK2 with cyclin A | enzyme activity, inhibitor |  | 0.1 µM |  | inhibition | 4%
Cc1cnc2nc1Nc1cccc(c1)COC/C=C/COCc1cc(ccc1OCCN1CCOCC1)N2 | CDK2 | cell-free assay |  | 0.1 µM |  | remaining signal | 97%
O=C(Cc1ccc(OCc2ccccc2)cc1)NC1(C(=O)O)CCN(C(=O)c2ccc(-c3cccc(Cl)c3)cc2)CC1 | CDK2 with cyclin A | enzyme activity, inhibitor |  | 10 µM |  | activity vs control | 122%
CNC(=O)C1CCCN(C(=O)C2CC3CCC2N3C(=O)[C@@H]2C[C@@H](O)CN2C(=O)NCc2cccc(Cl)c2F)C1 (mixture of isomers) | CDK2 | degrader, Western blot | A549 | concentration not given, 24 h after washout |  | protein reduction | > 50%
COCC12C(=O)NC3C4(C(OC)CC1O)C1CC5(O)C(OC)C(O)C(OC(C)=O)(C1C5OC(=O)c1ccccc1)C3(O)C(OC)C24 (stereo not shown) | CDK2 with cyclin A | kinase activity, inhibitor, ProQinase kinase profiling |  | 25 µM | reference: control | remaining activity | 106% and 110%
C=CC(=O)N1CCc2ccc(-n3c(=O)ccc4cnc5ccc(-c6cnn(C)c6)cc5c43)cc21 | CDK2 | KINOMEscan |  | 1 µM | reference: DMSO control | remaining binding | 92%
Cc1cccc(O[C@H]2CCC[C@@H](C(C)CNCc3ccncc3)C2)c1 (relative stereo) | CDK2 | kinase activity, kinome panel screening |  | 10 µM |  | inhibition | -17%
COc1cc(Nc2nccc(-c3cnn4nc(OC)ccc34)n2)cc(C(F)(F)F)c1 | CDK2 | binding, competition with immobilised ligand |  | 1 µM |  | remaining binding | 100%
Cc1cccc(-c2ccc3nc(NC(=O)C4CCCO4)nn3c2)c1 (stereo not shown) | CDK2 with cyclin A | enzyme activity, Dundee kinase panel |  | 10 µM |  | remaining activity | 105%
COc1ccc(NC(=O)Nc2ccc3c(c2)C(=O)N(C(C)CO)CC(C)C(CN(C)Cc2ccc4c(c2)OCO4)O3)cc1 (stereo not shown) | CDK2 with cyclin A | kinase activity, KinaseProfiler |  | 0.03 µM, species human | reference: control | remaining activity | 88%
O=c1c(-c2ccc(Cl)c(CN3CCOCC3)c2)coc2cc(O)ccc12 | CDK2 with cyclin A | enzyme activity, inhibitor |  | 1 µM |  | remaining activity | 113%
C=CC(=O)Nc1cccc(-c2cnc3[nH]cc(C(=O)NC(C)(C)C)c3n2)c1 | CDK2 with cyclin E | enzyme activity, inhibitor |  | 0.1 µM |  | inhibition | 21%
O=C=[N][Ru-4]123([n]4c5ccc(O)cc5c5c6c(c7cc(F)c[n+]1c7c54)C(=O)NC6=O)[S+]1CC[S+]2CC[S+]3CC1 (stereo not shown) | CDK2 with cyclin A | enzyme activity |  | 100 nM, human enzyme, together with: 10 µM ATP | reference: untreated | remaining activity | 115%
C=CC(=O)N1CCCC(n2c(=O)c3ncccc3n(Cc3ccc(Oc4ccccc4)cc3)c2=O)C1 (stereo not shown) | CDK2 | cell-free assay, competition with immobilised ligand |  | 1 µM |  | remaining binding | 100%
NC(=O)C[C@H]1CCc2sc3ncnc(O[C@H]4CC[C@H](N5CCOCC5)CC4)c3c21 | CDK2 with cyclin A | enzyme activity, inhibitor |  | 10 µM |  | inhibition | 19%
C[C@]1(O)CCCN(c2nc(Nc3ccc(S(=O)(=O)N[C@H]4CC[C@H](CN5CCN(c6ccc(C7CCC(=O)NC7=O)cc6F)CC5)CC4)cc3)ncc2C(F)(F)F)C1 (stereo partly shown) | CDK2 | binding, competition with immobilised ligand |  | 1 µM |  | remaining binding | 6.3%
CCc1nnc(Nc2cnc([C@@H]3CCCN(C(=O)CCc4cccnc4)C3)cn2)s1 | CDK2 | enzyme activity, inhibitor, ADP detection |  | 1 µM |  | activity vs control | 107%
CN1C[C@@H](c2c[nH]c3cc(Br)ccc23)NC[C@@H]1c1c[nH]c2cc(Br)ccc12 | Cyclin-dependent kinase 2, with cyclin E1 (CDK2, Homo sapiens, UniProt P24941) | enzyme activity, inhibitor |  | 10 µM |  | remaining activity | 101%
CNC(=O)C[C@H](Cc1ccc(C#N)cc1)NC(=O)c1cc(-c2ccc(CN[C@H](C)c3ccc(C)cc3)o2)ccc1Cl | CDK2 with cyclin E | enzyme activity, inhibitor |  | 1 µM |  | activity vs control | 99%
CN1CCN(Cc2ccc(NC(=O)c3cccc(C#Cc4cnc(N)c5ncccc45)c3)cc2C(F)(F)F)CC1 | CDK2 | cell-free assay, competition with immobilised ligand |  | 50 nM |  | remaining binding | 81%
Cc1cc(C)nc(Nc2ccc([C@@H]3CCCN(C(=O)/C=C/c4csc(C)n4)C3)nc2)n1 | CDK2 | enzyme activity, inhibitor, ADP detection |  | 1 µM |  | activity vs control | 95%
Cc1ccc(-c2c(/C=C(\C#N)C(=O)NC(C)C)n(CCCO)c3ncnc(N)c23)cc1 | CDK2 | cell-free assay, competition with immobilised ligand |  | 1 µM |  | remaining binding | 82%
Cc1cccc(-c2ccc3nc(NC(=O)C4CCCCC4)nn3c2)c1 | CDK2 with cyclin A | enzyme activity, Dundee kinase panel |  | 10 µM |  | remaining activity | 101%
COc1c(Cl)cccc1Nc1c(-c2ccncc2C#C[C@@]2(C)CCCN2C(=O)/C=C/CN(C)C)[nH]c2c1C(=O)NCC2 | CDK2 | binding, competition with immobilised ligand |  | 3 µM |  | remaining binding | 97%
CC(C)=CC1OC(C)(C)C2C=C3C(=O)C(Cl)=CC(O)C3C3C(O)C4OC4C(=O)C132 (stereo not shown) | CDK2 | cell-free assay, competition with immobilised ligand |  | 10 µM |  | remaining binding | 89%
CNS(=O)(=O)Nc1nccc(Cc2c(C)c3ccc(Oc4ncccc4F)cc3oc2=O)c1F | CDK2 | binding, competition with immobilised ligand |  | 10 µM |  | remaining binding | 100%
C=CC(=O)N1Cc2nc(-c3cc(-c4cc(Cl)cnc4Cl)c(F)cc3F)n(-c3ccncn3)c2C1 | Cyclin-dependent kinase 2, with cyclin A1 (CDK2, Homo sapiens, UniProt P24941) | cell-free assay, inhibitor |  | 1 µM |  | inhibition | -4.9%

Excerpt of the above:
Compound | target | assay | test system | conditions | scale | quantity | value
Cc1cccc(-c2ccc3nc(NC(=O)C4CCCCC4)nn3c2)c1 | CDK2 with cyclin A | enzyme activity, Dundee kinase panel |  | 10 µM |  | remaining activity | 101%
COc1c(Cl)cccc1Nc1c(-c2ccncc2C#C[C@@]2(C)CCCN2C(=O)/C=C/CN(C)C)[nH]c2c1C(=O)NCC2 | CDK2 | binding, competition with immobilised ligand |  | 3 µM |  | remaining binding | 97%
